Literature values, collected from citations in different studies.
Each line is one published result; not all experiments were run side by side. Numbers after ± are the reported error. In brackets after ≈: the same amount, converted by molar mass.

SMILES	target or system	assay	system	setting	endpoint	value
CC1(C)S[C@@H]2[C@H](NC(=O)[C@H](N)c3ccccc3)C(=O)N2[C@H]1C(=O)O	Pseudomonas aeruginosa		clinical isolate RKI-No_462/13		MIC	> 16 µg/mL
CC(C)(C)c1ccc(CNC(=O)Nc2cccc3cnccc23)cc1	TRPV1	calcium flux, antagonist	HEK293	with: capsaicin	IC50	3 nM
CCNS(=O)(=O)c1ccc(OC)cc1C1(O)CCN(Cc2cccc(Oc3ccccc3OC)c2)CC1	human CCR8 K195A mutant (TM5)	IP accumulation, agonist			EC50	12 nM
COCCCc1cc(C(F)(F)F)ccc1CNC(=O)Nc1cccc2[nH]ncc12	TRPV1	calcium flux, antagonist	HEK293	with: capsaicin	IC50	8 nM
C[C@H](Cn1cnc2c(N)ncnc21)OCP(=O)(O)O	hepatitis B virus	refers to: HBV DNA	human HBeAg-negative patients	dose not given, week 4, after discontinuation	virologic relapse	34%
CNC(C)C1CCC(N)C(OC2C(N)CC(N)C(OC3OCC(C)(O)C(NC)C3O)C2O)O1 (stereo not shown)	Enterobacter cloacae		clinical isolate RKI-No_136/15		MIC	4 µg/mL (≈ 8.38 µM)
Cc1ccc(CNC(=O)Nc2cccc3[nH]ncc23)c(N2CCCCC2)n1	TRPV1	calcium flux, antagonist	HEK293	with: capsaicin	IC50	16 nM
NC(=S)NN=Cc1ncccc1N	human cervical cancer cells			concentration not given, clinically attainable concentrations and times	cell survival	80%
COc1ccccc1Oc1cccc(CN2CCC(NC(=O)C3CC(=O)Nc4ccccc43)CC2)c1 (stereo not shown)	human CCR8 H283A mutant (TM7)	IP accumulation, agonist			EC50	46 nM
FC(F)(F)c1ccc(Nc2nc(N3CCN(C4CCC4)CC3)nc3c2CCN(c2ncccc2C(F)(F)F)CC3)cc1	TRPV1	calcium flux, antagonist	HEK293	with: capsaicin	IC50	24 nM
COc1ccccc1Oc1cccc(CN2CCC(O)(c3ccccc3C(=O)O)CC2)c1	human CCR8 Y42A mutant (TM1)	IP accumulation, agonist			EC50	131 nM
Cc1c(C#N)cccc1[C@@H](C)Nc1nnc(C)c2cnc(N3CCOCC3)cc12	RERF-LC-Ad1	In-Cell Western, refers to: pERK			IC50	79.9 ± 58.7 nM
COc1ccccc1Oc1cccc(CN2CCC(NC(=O)C(CCN3CCCC3)c3ccccc3)CC2)c1 (stereo not shown)	human CCR8 Y42A mutant (TM1)	IP accumulation, agonist			EC50	172 nM
C[C@H]1COCCN1c1nc(-c2cnc(N)cc2C(F)F)nc(N2CCOCC2)n1	SW48				GI50	200 nM
Cc1cnc(N2CC3(CCOCC3)C2)c(C(=O)Nc2ccc(C(=O)N3CCc4cc(C(=O)Nc5c(C)cccc5F)sc4-c4ccccc43)cc2)c1	respiratory syncytial virus	cytopathic effect	A2		IC90	0.000451 µg/mL (≈ 0.00063 µM)
FC(F)(F)c1ccc(Nc2ccnc3nc(-c4ncccc4C(F)(F)F)ccc23)cc1	TRPV1	calcium flux, antagonist	HEK293	with: capsaicin	IC50	6.1 nM
COc1ccccc1Oc1cccc(CN2CCC3(CC2)C(=O)NCN3CCc2ccccc2)c1	CCR8 human G206W	inositol phosphate accumulation, agonist			EC50	no effect
Nc1cc(C(F)(F)F)c(-c2nc(N3CCOCC3)nc(N3CCOCC3)n2)cn1	U-2 OS				GI50	536 nM
CCCCCc1ccc(C(=O)Nc2cccc3cnccc23)cc1	TRPV1	calcium flux, antagonist	HEK293	with: capsaicin	IC50	2.4 nM

Excerpt of the above:
SMILES	target or system	assay	system	setting	endpoint	value
COc1ccccc1Oc1cccc(CN2CCC(NC(=O)C(CCN3CCCC3)c3ccccc3)CC2)c1 (stereo not shown)	human CCR8 Y42A mutant (TM1)	IP accumulation, agonist			EC50	172 nM
C[C@H]1COCCN1c1nc(-c2cnc(N)cc2C(F)F)nc(N2CCOCC2)n1	SW48				GI50	200 nM
